Results from different studies.
Lines come from different studies, so protocols differ. Several values in a cell are separate wells, animals, samples, runs or records. Numbers after ± are the reported error.

Substance = CC(=O)OC1OC(OC(C)=O)[C@@H]2CCC=C[C@H]12 (some centres unmarked); cell line = human T-lymphocyte; assay = cell growth or viability, MTT; conditions = 48 h; EC50 = > 10 µM
Substance = O=C1C=C(NCc2ccccc2)C(=O)c2ccccc21; cell line = mitogen-stimulated human PBMC; assay = cell proliferation, inhibitor, MTS; EC50 = 3.24 µM and 3.2 µM
Substance = CC[C@H](C)[C@H](NC(=O)[C@H](CCC(=O)O)NC(=O)[C@H](CC(=O)O)NC(=O)CNC(=O)[C@H](CC(C)C)NC(=O)[C@H](CCCNC(=N)N)NC(=O)[C@H](CCCNC(=N)N)NC(=O)[C@H](CC(C)C)NC(=O)CNC(=O)[C@H](CCC(N)=O)NC(=O)[C@@H](NC(=O)[C@H](CCSC)NC(=O)[C@H](Cc1c[nH]c2ccccc12)NC(=O)[C@@H](NC(=O)[C@H](CCC(=O)O)NC(=O)[C@@H]1CCCN1C(=O)[C@H](CCCNC(=N)N)NC(C)=O)[C@@H](C)CC)[C@@H](C)O)C(=O)N[C@@H](CC(N)=O)C(=O)N[C@@H](C)C(=O)N[C@@H](Cc1ccc(O)cc1)C(=O)N[C@@H](Cc1ccc(O)cc1)C(=O)N[C@@H](C)C(=O)N[C@@H](CCCNC(=N)N)C(N)=O; cell line = Bcl-2/Myc 2924, permeabilized; assay = mitochondrial depolarization, BH3 profiling, JC-1; conditions = 3 h; EC50 = > 100 µM
Substance = teriparatide; cell line = HEK-PR1; assay = calcium signal, potentiator; conditions = added: carbachol; EC50 = 0.031 ± 0.01 µM
Substance = Nc1ccn([C@@H]2O[C@H](CO)[C@@H](O)[C@@H]2O)c(=O)n1; cell line = ENT2 knockout; assay = cell viability, MTT; conditions = 48 h, low affinity phase; EC50 = 3310 µM
Substance = CC[C@H](C)[C@H](NC(=O)[C@H](CCC(=O)O)NC(=O)[C@H](CC(=O)O)NC(=O)CNC(=O)[C@H](CC(C)C)NC(=O)[C@H](CCCNC(=N)N)NC(=O)[C@H](CCC(N)=O)NC(=O)[C@H](CC(C)C)NC(=O)[C@H](CO)NC(=O)[C@H](CCC(N)=O)NC(=O)[C@@H](NC(=O)[C@H](CC(C)C)NC(=O)[C@H](Cc1c[nH]c2ccccc12)NC(=O)[C@@H](NC(=O)[C@H](CCC(=O)O)NC(=O)[C@@H]1CCCN1C(=O)[C@H](CCCNC(=N)N)NC(C)=O)[C@@H](C)CC)[C@@H](C)O)C(=O)N[C@@H](CC(N)=O)C(=O)N[C@@H](C)C(=O)N[C@@H](Cc1ccc(O)cc1)C(=O)N[C@@H](Cc1ccc(O)cc1)C(=O)N[C@@H](C)C(=O)N[C@@H](CCCNC(=N)N)C(N)=O; cell line = Pfeiffer, permeabilized; assay = mitochondrial depolarization, BH3 profiling, JC-1; conditions = 3 h; EC50 = > 100 µM
Substance = C[C@]12CC[C@H]3C(=CC=C4C[C@@H](O)CC[C@@]43C)[C@@H]1CC[C@@H]2C(=O)CO; cell line = SK-MEL-188 pigmented melanoma; assay = cell growth, inhibitor, MTT; conditions = 48 h; EC50 = 0.118 µM
Substance = N=C(NCCCCCN)c1ccc(OCCCCCOc2ccc(C(=N)NCCCCCN)cc2)cc1; cell line = WM-115, scrambled shRNA; assay = cell growth, SYBR Green; conditions = high S100B; EC50 = 37.1 ± 3.6 µM
Substance = Cc1cc(Nc2ccc(NC(=O)c3ccc(Nc4ccnc5ccccc45)cc3)cc2)nc(N)n1; cell line = KG-1; assay = cell proliferation; conditions = 3 days, 15 % fetal calf serum; EC50 = 4.4 µM
Substance = COc1cc(F)c([C@@H]2CNC(=O)[C@H]2NC(=O)Nc2ccccc2)c(F)c1; cell line = differentiated HL-60 FPR1-deficient; assay = chemotaxis, agonist; conditions = stimulatory phase bell curve; EC50 = 0.004 µM
Substance = CC(C)C(C(=O)c1ccc(OCCN(C)C)cc1)c1ccccc1 (centres unmarked); cell line = type 2 Gaucher disease patient cells, L444P/L444P; assay = lysosomal calcium release; conditions = added: GPN; EC50 = 4 to 4.4 µM
Substance = [Au(mba)(PPh3)]; cell line = BT-474; assay = cell viability; conditions = 72 h; EC50 = 3.51 ± 0.16 µM
Substance = CN(C)C1CCN(CC#Cc2nn(C3CCCC3)c3nc(NCc4ccccc4)ncc23)C1 (centres unmarked); cell line = T98; assay = cell growth or viability, resazurin; conditions = 5 days; EC50 = 2.41 µM
Substance = CO[C@H]1C[C@@H]2CC[C@@H](C)[C@@](O)(O2)C(=O)C(=O)N2CCCC[C@H]2C(=O)O[C@H]([C@H](C)C[C@@H]2CC[C@@H](O)[C@H](OC)C2)CC(=O)[C@H](C)/C=C(\C)[C@@H](O)[C@@H](OC)C(=O)[C@H](C)C[C@H](C)/C=C/C=C/C=C/1C; cell line = neuroblastoma tumour-initiating cells; assay = sphere formation; conditions = 6 days, retreated on day 3, mean over lines; EC50 = 0.00011 µM

Repeated from above:
Substance = [Au(mba)(PPh3)]; cell line = BT-474; assay = cell viability; conditions = 72 h; EC50 = 3.51 ± 0.16 µM
